# Experimental data gathered from unrelated publications.
# ± marks the error that the study gave.
# Matrix: plasma
Structure (SMILES),test,test system,setting,measurement,value
CN(C(=O)C(C)(C)c1cc(C(F)(F)F)cc(C(F)(F)F)c1)c1cnc(N2C[C@H]3COCCN3C[C@H]2CO)cc1-c1ccc(F)cc1CO,,human,"oral, 120 mg, median",Tmax,1.75 h
CNc1nc(N)nc2c1ncn2C1OC(COP(=O)(O)NC(C)C(=O)O)C(O)C1(C)F (stereo not shown),,healthy adult human,"oral, 550 mg, day 12, median, fasted",Tmax,1 h
CC[C@H](C)[C@@H]1NC(=O)[C@H](Cc2ccc(O)cc2)NC(=O)CCCSC[C@@H](C(=O)N(CC(=O)N[C@@H](CC(C)C)C(=O)NCC(N)=O)Cc2ccc(F)cc2)NC(=O)[C@H](CC(N)=O)NC(=O)[C@H](CCC(N)=O)NC1=O,,healthy human,"intranasal, 200 µg every 3 h, after last dose",tmax median,0.33 h
CCCCCCCOc1ccc(CC[C@](N)(CO)COP(=O)(O)O)cc1C(F)(F)F,,healthy male humans,"0.5 mg amiselimod, day 21, median",Tmax,8 h
COc1cc2c(cc1OC)[C@H]1C[C@@H](O)[C@H](CC(C)C)CN1CC2,measured: non-deuterated analyte,healthy human male,"oral, 25 mg, median, [14C]-tetrabenazine dosed",Tmax,1.5 h
CN1CCC[C@]1(C)/C=C/S(=O)(=O)NC(=O)Nc1c2c(cc3c1CCC3)CC=C2,,human,"oral, 50 mg twice daily of parent drug, day 14, metabolite of dosed drug",Tmax at first steady-state dose,3 h
[2H]C([2H])([2H])NC(=O)c1ccc(N2C(=S)N(c3ccc(C#N)c(C(F)(F)F)c3)C(=O)C2(C)C)cc1F,,human male,"oral, 160 mg, single dose after meal",Tmax,2.04 ± 1.27 h
CN1CCC[C@]1(C)/C=C/S(=O)(=O)NC(=O)Nc1c2c(cc3c1CC(O)C3)CCC2 (stereo partly shown),,human,"oral, 12.5 mg twice daily of parent drug, day 14, metabolite of dosed drug",Tmax at first steady-state dose,3 h
COc1cc2c(cc1O)CCN1C[C@@H](CC(C)C)[C@H](O)C[C@H]21,measured: non-deuterated analyte,healthy human male,"oral, 25 mg, median, [14C]-tetrabenazine dosed",Tmax,2.5 h
CN1CCC[C@]1(C)/C=C/S(=O)(=O)NC(=O)Nc1c2c(cc3c1C(O)CC3)CCC2 (stereo partly shown),,human,"oral, 12.5 mg twice daily of parent drug, day 14, metabolite of dosed drug",Tmax at first steady-state dose,3 h
Cc1[nH]c(=O)c(CNC(=O)c2cc(Cl)c3c(c2C)O[C@@](C)([C@H]2CC[C@H](N(C)C)CC2)O3)c(C)c1O,,human male,"oral, 200 mg, single dose, metabolite of valemetostat, together with: [14C]-valemetostat",Tmax,4 h
CN1CCC[C@]1(C)/C=C/S(=O)(=O)NC(=O)Nc1c2c(cc3c1CCC3O)CCC2 (stereo partly shown),,human,"oral, 100 mg twice daily of parent drug, day 14, metabolite of dosed drug",Tmax at first steady-state dose,2 h
O=C(O)[C@H]1O[C@@H](N(Cc2ccc(C(F)(F)F)nc2)c2ccc(Cc3c[nH]c4ncc(Cl)cc34)cn2)[C@H](O)[C@@H](O)[C@@H]1O,,"human, male","oral, 400 mg of [14C]-pexidartinib single dose, as metabolite, median",Tmax,3 h
